Assay results pooled from the literature.
Every numbered part comes from another study and shows a few of its results, in no order.

Study 1 — technique: protein-binding microarray; form: double-stranded DNA, one strand shown; matrix: in vitro; tested at: not given; reading: higher = stronger binding
Target: Transcription factor SOX-2, HMG box (SOX2, Homo sapiens, UniProt P48431, residues 19-118)
Chain of UniProt P48431 (19-118, looked up): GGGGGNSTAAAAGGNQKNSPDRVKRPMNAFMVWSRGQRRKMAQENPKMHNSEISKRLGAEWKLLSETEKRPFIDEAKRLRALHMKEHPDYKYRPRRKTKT
Setting: k-mer, scored over probes, only values ≥0.25
Sequence	E-score
ATCATTG	0.306
ACATTCA	0.388
TGTATAA	0.271
CATTCAG	0.36

Study 2 — technique: protein-binding microarray; form: double-stranded DNA, one strand shown; matrix: in vitro; tested at: 250 nM; setting: 60-bp whole probe; added: salmon DNA 0.4 mg/ml; relative to: random background probes; reading: higher = stronger binding
Target: Interferon regulatory factor 7, full length, phosphomimetic (IRF7, Homo sapiens, UniProt Q92985, residues 1-503, S101K/S471D/S472D/S475D/S476D/S477D/S483D/S484D/S487D)
Chain of UniProt Q92985 (whole entry, unmodified, looked up): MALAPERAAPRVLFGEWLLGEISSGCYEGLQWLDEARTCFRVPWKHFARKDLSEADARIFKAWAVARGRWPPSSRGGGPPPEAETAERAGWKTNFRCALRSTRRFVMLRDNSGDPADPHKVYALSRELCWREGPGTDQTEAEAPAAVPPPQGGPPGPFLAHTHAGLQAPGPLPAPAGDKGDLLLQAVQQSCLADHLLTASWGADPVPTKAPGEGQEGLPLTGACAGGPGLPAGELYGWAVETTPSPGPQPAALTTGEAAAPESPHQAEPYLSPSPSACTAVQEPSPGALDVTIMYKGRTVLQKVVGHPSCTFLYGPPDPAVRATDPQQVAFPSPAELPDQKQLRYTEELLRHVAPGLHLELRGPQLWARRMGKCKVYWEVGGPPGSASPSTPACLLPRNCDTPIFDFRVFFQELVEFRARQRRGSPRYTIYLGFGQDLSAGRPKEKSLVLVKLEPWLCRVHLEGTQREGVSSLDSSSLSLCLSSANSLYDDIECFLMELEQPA
All sequences stand within: GCCTAGCAC … GTGCTAGGTCTTGATTCGCTTGACGCTGCTG
Sequence	log fluorescence [z-score]
AAACCTCACAGTTTGTAAAT	0.176
TTAGGGCTCGGACTGGGTTA	-0.185
ACAAATACAAGTTTCTCCTT	1.46
TTAGGTATCCGTCTCCTTTA	0.292
TTAGGTTTAGGACTGGGTTA	0.323

Study 3 — technique: protein binding microarray; form: double-stranded DNA, one strand shown; matrix: in vitro; tested at: not given; relative to: not given; reading: higher = stronger binding
Target: Histone acetyltransferase KAT6A, both winged helices, GST fusion (KAT6A, Homo sapiens, UniProt Q92794, residues 1-181)
Setting: 8-mer, flanks averaged, mean of 2 arrays, mostly near background
Residues (chain): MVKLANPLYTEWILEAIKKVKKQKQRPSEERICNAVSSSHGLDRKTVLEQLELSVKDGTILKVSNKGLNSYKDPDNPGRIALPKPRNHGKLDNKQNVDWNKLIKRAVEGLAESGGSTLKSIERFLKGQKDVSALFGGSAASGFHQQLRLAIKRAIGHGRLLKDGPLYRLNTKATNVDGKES
Sequence	E-score
GATACCCC	-0.0343
GGGAAACA	0.0802
CGCTAACA	0.0879

Mixed results
Substance	target	assay	system	conditions	how to read	quantity	value
PhoQ, residues 284 288 289 292 302 303 AGGCYF	PhoP, residues 12 14 15 18 19 LHATL (Escherichia coli, UniProt P23836)	Sort-seq, refers to: YFP reporter	E. coli	PhoQ-PhoP variant library, added: 10 µM Mg2+	relative to: high Mg2+ state, higher = stronger signaling	fold induction	24.3

For quick reference, copied from above (study 3):
Sequence	E-score
GATACCCC	-0.0343
CGCTAACA	0.0879
